Published values from different studies.
Each line is one published result; not all experiments were run side by side.
Cell line: A549

CC(C)=CCC[C@@](C)(O)[C@H]1CC[C@]2(C)[C@@H]1CC[C@@H]1[C@@]3(C)CCC(=O)C(C)(C)[C@@H]3CC[C@]12C has an IC50 of 47.8 µM (cell growth or viability, SRB).
OC[C@H]1[C@@H](O)[C@@H](O)CN1Cc1ccccc1 has an IC50 of over 200 µM (cell growth or viability, MTS; 72 h).
C#CCCCC[C@H](C)C[C@@H](C)C(=O)N(C)[C@H](C(=O)N(C)[C@@H](Cc1ccccc1)C(=O)N1CCC[C@H]1C(=O)N1CCC[C@H]1C(C)=O)C(C)C gave an IC50 of 0.2 µM (cell growth or viability, SRB).
The IC50 of C[C@H]1C(OCCCCCCC[P+](c2ccccc2)(c2ccccc2)c2ccccc2)O[C@@H]2O[C@@]3(C)CCC4[C@H](C)CCC1[C@]42OO3 (some centres unmarked) is reported as 0.138 µM (cell growth or viability, MTT; 72 h).
For C[C@H]1O[C@@H](O[C@H]2CC[C@@]3(C)[C@H](CC[C@@H]4[C@@H]3C[C@@H](O)[C@]3(C)[C@@H](C5=CC(=O)OC5)[C@@H](O)C[C@]43O)C2)C[C@H](O)[C@@H]1O, the IC50 was 0.67 µM (cell growth or viability, MTT; 48 h).
The IC50 of C=CC[P](c1ccccc1)(c1ccccc1)[Pt]([S]c1ccccn1)([S]c1ccccn1)[P](CC=C)(c1ccccc1)c1ccccc1 is reported as 4.31 µM (cell growth or viability, MTT).
With CO[C@@H]1[C@@H](O)[C@H](O[C@H]2CC[C@@]3(C)[C@H](CC[C@@H]4[C@@H]3CC[C@]3(C)[C@@H](C5=CC(=O)OC5)[C@@H](O)C[C@]43O)C2)O[C@H](C)[C@@H]1O[C@@H]1O[C@H](CO)[C@@H](O)[C@H](O)[C@H]1O the IC50 was 0.42 µM (cell growth or viability, MTT; 48 h).
C1=CCCC=CCC1.C1=CCCC=CCC1.O=C(N=P12CN3CN(CN(C3)C1)C2)c1cccc[c]1[Pt+].O=C(N=P12CN3CN(CN(C3)C1)C2)c1cccc[c]1[Pt+].[Cl][Hg-]([Cl])[Cl].[Cl][Hg-]([Cl])[Cl].[Cl][Hg][Cl].[Cl][Hg][Cl] has an IC50 of 20.8 µM (cell growth or viability, MTT; 24 h).
The IC50 of C=CC[P](c1ccccc1)(c1ccccc1)[Pt]([S]c1nc2ccccc2[nH]1)([S]c1nc2ccccc2[nH]1)[P](CC=C)(c1ccccc1)c1ccccc1 is reported as 18.6 µM (cell growth or viability, MTT).
With CCCCCCCCCCCCC(=O)O.O=C1CCCC2C3CCCN4CCCC(CN12)C34 (centres unmarked) the IC50 was 680 µM (cell growth or viability, MTT; 24 h).
For COc1ccc2c(c1)C(=NNC(=O)c1cc3cc(OC)ccc3[nH]1)C(=O)N2Cc1ccccc1, the IC50 was 0.9 µM (cell growth or viability).
For CCOC12C(O)C(OC)C3(O)CC(C1C3OC(=O)c1ccccc1)C13C(OC)CC(O)C4(COC)CN(CC)C1C2C(OC)C43 (centres unmarked), the IC50 was 20.1 µM (cell growth or viability, MTT).
C[C@H]1C(OCCCCCCCCCCCC[P+](c2ccccc2)(c2ccccc2)c2ccccc2)O[C@@H]2O[C@@]3(C)CCC4[C@H](C)CCC1[C@]42OO3 (some centres unmarked) has an IC50 of 0.189 µM (cell growth or viability, MTT; 72 h).
For CCN1CC2(COC)CCC(OC)C34C5CC6C(OC)CC(C5C6O)C(C(OC)C23)C14 (centres unmarked), the IC50 was 8.36 µM (cell growth or viability, MTT).
COC(=O)[C@H](C(C)C)N(C)C(=O)[C@H](C(C)C)N(C)C(=O)[C@@H]1CCCN1C(=O)[C@H](C)N(C)C(=O)OC(C)(C)C gave an IC50 of 3 µM (cell growth or viability, SRB).
CCN1CC2(COC)C(O)CC(OC)C34C5CC6(O)C(OC)C(O)C(O)(C5C6OC(=O)c5ccccc5)C(C(OC)C23)C14 (centres unmarked) has an IC50 of 20.6 µM (cell growth or viability, MTT).
Cc1[nH]c(=O)c(CNC(=O)c2ccc(C(F)(F)F)nc2)c2c1CCCC2 gave an IC50 of over 100 µg/mL (cell growth or viability, MTT; 72 h).
The IC50 of NC1CCCCC1N.O=C1[O][Pt]([O]C(=O)c2ccc(P(c3ccccc3)c3ccccc3)cc2)([O]C(=O)c2ccc(P(c3ccccc3)c3ccccc3)cc2)[O]C1=O.[Cl][Au].[Cl][Au] is reported as 12.8 µM (cell growth or viability, resazurin; 72 h).
For CC(C)C[C@H](NC(=O)[C@H](C)NC(=O)[C@H](CCCCN)NC(=O)[C@H](CC(C)C)NC(=O)[C@H](C)NC(=O)[C@H](CC(C)C)NC(=O)[C@H](CCCCN)NC(=O)[C@H](CC(C)C)NC(=O)[C@H](C)NC(=O)[C@H](CC(C)C)NC(=O)[C@@H](N)CCCCN)C(=O)N[C@@H](CCCCN)C(=O)N[C@@H](C)C(=O)N[C@@H](C)C(=O)N[C@@H](CC(C)C)C(=O)N[C@@H](CCCCN)C(=O)N[C@@H](CC(C)C)C(=O)N[C@@H](C)C(N)=O, the IC50 was 2.1 µM (cytotoxicity).
For CC(=O)O[C@H]1C[C@H](O[C@H]2[C@@H](O)C[C@H](O[C@H]3[C@@H](O)C[C@H](O[C@H]4CC[C@@]5(C)[C@H](CC[C@@H]6[C@@H]5CC[C@]5(C)[C@@H](C7=CC(=O)OC7)[C@@H](O)C[C@]65O)C4)O[C@@H]3C)O[C@@H]2C)O[C@H](C)[C@H]1O[C@@H]1O[C@H](CO)[C@@H](O)[C@H](O)[C@H]1O, the IC50 was 0.57 µM (cell growth or viability, MTT; 48 h).
CC(C)C(O)C(NC(=O)[C@H](Cc1ccc(O)cc1)NC(=O)C(Cc1ccc(O)cc1)[N+](C)(C)C)C(=O)N[C@@H](C)C(=O)O (some centres unmarked) has an IC50 of over 100 µM (cell growth or viability).
The IC50 of CCN1CC2(COC)CCC(O)C34C5CC(C(CO)OC)CC5C(=O)C(C(OC)C23)C14 (centres unmarked) is reported as 26.5 µM (cell growth or viability, MTT).
With C[C@H]1C(OCCCC[P+](c2ccccc2)(c2ccccc2)c2ccccc2)O[C@@H]2O[C@@]3(C)CCC4[C@H](C)CCC1[C@]42OO3 (some centres unmarked) the IC50 was 0.223 µM (cell growth or viability, MTT; 72 h).
For CCN1CC2(COC)CCC(OC)C34C5CC6C(OC)C(O)C(O)(C(CC23)C14)C5C6OC(=O)c1ccccc1 (centres unmarked), the IC50 was 21.3 µM (cell growth or viability, MTT).
For [Ga+3].[O-]c1ccc(Br)c2cccnc12.[O-]c1ccc(Br)c2cccnc12.[O-]c1ccc(Br)c2cccnc12, the IC50 was 8.7 µM (cell growth or viability, MTT; 72 h).
CCN1CC2(COC)CCC(OC)C34C5CC6(O)C(OC)C(O)C(O)(C5C6OC(=O)c5ccccc5)C(C(OC)C23)C14 (centres unmarked) gave an IC50 of 16.1 µM (cell growth or viability, MTT).
COc1cc(/C=C(\C#N)C(=O)Nc2nnc(C(F)(F)F)s2)ccc1OC(=O)N1CCN(C(=O)CCCC(=O)NCCCC[C@@H]2NC(=O)[C@@H](Cc3ccc(O)cc3)NC(=O)[C@H](CC(=O)O)NC(=O)CNC(=O)[C@H](CCCNC(=N)N)NC2=O)CC1 has an IC50 of over 100 µM (cell growth or viability, MTT).
The IC50 of CCN1CC2(COC)CCC(O)C34C5CC6C(OC)CC(O)(C5C6OC(C)=O)C(C(OC)C23)C14 (centres unmarked) is reported as 24.6 µM (cell growth or viability, MTT).
The IC50 of O=C1[O][Pt]2([OH])([OH])([NH]C3CCCCC3[NH]2)[O]C1=O (centres unmarked) is reported as over 100 µM (cell growth or viability, resazurin; 72 h).

Excerpt of the above:
CC(C)C(O)C(NC(=O)[C@H](Cc1ccc(O)cc1)NC(=O)C(Cc1ccc(O)cc1)[N+](C)(C)C)C(=O)N[C@@H](C)C(=O)O (some centres unmarked) has an IC50 of over 100 µM (cell growth or viability).
The IC50 of CCN1CC2(COC)CCC(O)C34C5CC(C(CO)OC)CC5C(=O)C(C(OC)C23)C14 (centres unmarked) is reported as 26.5 µM (cell growth or viability, MTT).
With C[C@H]1C(OCCCC[P+](c2ccccc2)(c2ccccc2)c2ccccc2)O[C@@H]2O[C@@]3(C)CCC4[C@H](C)CCC1[C@]42OO3 (some centres unmarked) the IC50 was 0.223 µM (cell growth or viability, MTT; 72 h).
